Results from different studies.
“And” joins repeats or separate records; there may be more than shown. Numbers after ± are the reported error.
uncharacterized protein: uncharacterized protein (Bos taurus, UniProt E1BM68)
NPY1R: Neuropeptide Y receptor type 1 (NPY1R, Homo sapiens, UniProt P25929)
UniProt P25929, sequence (whole entry, looked up): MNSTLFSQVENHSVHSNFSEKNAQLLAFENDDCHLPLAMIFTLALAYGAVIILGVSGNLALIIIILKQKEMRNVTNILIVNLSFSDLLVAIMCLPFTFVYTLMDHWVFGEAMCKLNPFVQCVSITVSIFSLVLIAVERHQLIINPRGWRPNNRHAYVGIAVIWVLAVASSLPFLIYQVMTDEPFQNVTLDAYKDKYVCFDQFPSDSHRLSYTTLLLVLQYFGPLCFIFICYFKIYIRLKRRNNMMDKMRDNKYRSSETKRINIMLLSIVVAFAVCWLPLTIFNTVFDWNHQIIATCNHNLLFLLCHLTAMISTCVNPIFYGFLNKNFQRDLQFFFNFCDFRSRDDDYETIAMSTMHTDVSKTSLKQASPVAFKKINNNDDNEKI
Olfactory receptor: Olfactory receptor (Mus musculus, UniProt Q8VGQ8)
Peroxisome proliferator-activated receptor delta: Peroxisome proliferator-activated receptor delta (Rattus norvegicus, UniProt Q62879)
UniProt Q8N884, sequence (whole entry, looked up): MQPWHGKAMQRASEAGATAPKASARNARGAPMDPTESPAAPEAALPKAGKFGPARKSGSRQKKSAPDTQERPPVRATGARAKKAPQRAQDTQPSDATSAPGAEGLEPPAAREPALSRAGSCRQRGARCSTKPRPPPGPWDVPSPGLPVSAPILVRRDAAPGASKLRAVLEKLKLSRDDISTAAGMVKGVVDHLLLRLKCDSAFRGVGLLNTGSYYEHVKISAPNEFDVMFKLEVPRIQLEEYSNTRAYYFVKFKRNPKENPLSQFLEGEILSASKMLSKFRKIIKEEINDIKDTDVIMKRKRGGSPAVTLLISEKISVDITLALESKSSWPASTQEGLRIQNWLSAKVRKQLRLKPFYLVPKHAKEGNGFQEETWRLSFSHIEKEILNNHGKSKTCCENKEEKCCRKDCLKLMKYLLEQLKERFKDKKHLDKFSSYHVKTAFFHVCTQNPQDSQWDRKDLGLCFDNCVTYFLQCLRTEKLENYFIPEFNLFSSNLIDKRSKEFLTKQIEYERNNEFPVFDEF
UniProt P46098, sequence (whole entry, looked up): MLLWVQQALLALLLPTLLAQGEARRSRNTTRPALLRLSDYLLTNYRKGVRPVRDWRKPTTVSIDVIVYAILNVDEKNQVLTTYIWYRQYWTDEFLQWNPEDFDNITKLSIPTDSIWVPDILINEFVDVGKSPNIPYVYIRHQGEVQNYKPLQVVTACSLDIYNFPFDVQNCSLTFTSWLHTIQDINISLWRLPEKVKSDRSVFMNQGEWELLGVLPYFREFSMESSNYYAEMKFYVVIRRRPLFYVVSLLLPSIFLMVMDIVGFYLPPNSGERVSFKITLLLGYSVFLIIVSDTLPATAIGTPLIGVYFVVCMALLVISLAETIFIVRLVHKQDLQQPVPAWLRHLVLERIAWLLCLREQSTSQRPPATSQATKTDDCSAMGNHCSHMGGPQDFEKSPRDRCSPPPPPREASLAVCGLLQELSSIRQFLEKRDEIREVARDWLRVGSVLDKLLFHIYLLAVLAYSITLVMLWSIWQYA
UniProt Q9BQB4, sequence (whole entry, looked up): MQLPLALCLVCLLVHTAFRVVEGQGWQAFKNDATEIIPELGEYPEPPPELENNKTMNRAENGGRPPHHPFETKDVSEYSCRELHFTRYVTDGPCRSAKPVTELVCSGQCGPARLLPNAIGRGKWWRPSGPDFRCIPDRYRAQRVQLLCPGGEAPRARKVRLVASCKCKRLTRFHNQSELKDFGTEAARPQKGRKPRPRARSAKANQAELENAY
UniProt P19784, sequence (whole entry, looked up): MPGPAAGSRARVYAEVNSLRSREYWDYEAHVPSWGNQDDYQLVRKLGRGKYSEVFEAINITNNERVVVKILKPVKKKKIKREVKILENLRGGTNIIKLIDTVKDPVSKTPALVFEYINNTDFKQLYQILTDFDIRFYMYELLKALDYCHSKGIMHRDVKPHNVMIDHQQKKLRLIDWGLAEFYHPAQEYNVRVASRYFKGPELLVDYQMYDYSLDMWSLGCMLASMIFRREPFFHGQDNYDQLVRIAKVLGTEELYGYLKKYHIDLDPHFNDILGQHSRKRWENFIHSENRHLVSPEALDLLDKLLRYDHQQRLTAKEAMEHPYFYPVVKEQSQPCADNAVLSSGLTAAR
UniProt Q08499, sequence (whole entry, looked up): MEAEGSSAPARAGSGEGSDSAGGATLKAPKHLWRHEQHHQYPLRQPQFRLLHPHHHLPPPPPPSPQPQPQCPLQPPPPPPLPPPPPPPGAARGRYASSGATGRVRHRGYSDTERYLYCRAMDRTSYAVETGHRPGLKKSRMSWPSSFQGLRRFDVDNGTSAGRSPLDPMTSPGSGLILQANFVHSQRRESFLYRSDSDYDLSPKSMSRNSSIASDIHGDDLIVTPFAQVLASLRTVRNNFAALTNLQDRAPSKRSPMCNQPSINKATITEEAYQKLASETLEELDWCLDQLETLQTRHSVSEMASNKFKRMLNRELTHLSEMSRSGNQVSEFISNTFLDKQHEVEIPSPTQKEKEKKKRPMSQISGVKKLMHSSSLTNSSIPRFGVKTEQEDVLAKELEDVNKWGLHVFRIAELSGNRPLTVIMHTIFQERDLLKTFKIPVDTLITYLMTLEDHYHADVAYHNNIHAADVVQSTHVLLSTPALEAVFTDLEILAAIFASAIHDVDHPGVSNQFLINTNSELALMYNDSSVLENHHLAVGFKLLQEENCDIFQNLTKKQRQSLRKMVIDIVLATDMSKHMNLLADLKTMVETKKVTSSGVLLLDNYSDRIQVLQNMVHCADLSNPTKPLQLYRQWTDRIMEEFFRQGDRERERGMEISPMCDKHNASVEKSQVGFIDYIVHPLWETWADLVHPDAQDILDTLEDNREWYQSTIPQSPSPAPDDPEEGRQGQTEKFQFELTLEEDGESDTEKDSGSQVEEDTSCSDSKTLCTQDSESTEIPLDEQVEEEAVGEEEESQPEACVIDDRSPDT
UniProt P34995, sequence (whole entry, unmodified, looked up): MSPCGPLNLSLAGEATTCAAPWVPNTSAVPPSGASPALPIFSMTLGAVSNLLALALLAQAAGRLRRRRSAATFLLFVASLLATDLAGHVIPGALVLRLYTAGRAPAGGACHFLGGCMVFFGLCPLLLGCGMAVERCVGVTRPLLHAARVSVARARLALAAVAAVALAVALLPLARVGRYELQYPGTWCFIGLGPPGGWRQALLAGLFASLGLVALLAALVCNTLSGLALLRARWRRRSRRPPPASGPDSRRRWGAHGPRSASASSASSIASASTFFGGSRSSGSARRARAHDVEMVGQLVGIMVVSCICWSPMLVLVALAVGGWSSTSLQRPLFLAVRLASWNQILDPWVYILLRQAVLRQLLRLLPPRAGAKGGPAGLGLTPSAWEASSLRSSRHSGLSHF
UniProt P30191, sequence (whole entry, looked up): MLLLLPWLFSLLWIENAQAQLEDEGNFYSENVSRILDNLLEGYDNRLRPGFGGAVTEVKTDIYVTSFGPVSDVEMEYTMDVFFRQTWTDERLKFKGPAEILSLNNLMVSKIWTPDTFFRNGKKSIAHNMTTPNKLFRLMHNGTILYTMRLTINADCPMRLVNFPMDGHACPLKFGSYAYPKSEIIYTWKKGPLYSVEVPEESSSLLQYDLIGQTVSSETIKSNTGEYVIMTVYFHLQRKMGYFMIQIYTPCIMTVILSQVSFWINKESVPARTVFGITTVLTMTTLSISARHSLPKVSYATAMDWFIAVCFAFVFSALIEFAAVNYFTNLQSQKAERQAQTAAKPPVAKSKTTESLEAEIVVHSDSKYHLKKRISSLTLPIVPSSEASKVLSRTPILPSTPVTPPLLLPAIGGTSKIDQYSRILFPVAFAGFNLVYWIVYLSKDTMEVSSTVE
UniProt P04150, sequence (whole entry, looked up): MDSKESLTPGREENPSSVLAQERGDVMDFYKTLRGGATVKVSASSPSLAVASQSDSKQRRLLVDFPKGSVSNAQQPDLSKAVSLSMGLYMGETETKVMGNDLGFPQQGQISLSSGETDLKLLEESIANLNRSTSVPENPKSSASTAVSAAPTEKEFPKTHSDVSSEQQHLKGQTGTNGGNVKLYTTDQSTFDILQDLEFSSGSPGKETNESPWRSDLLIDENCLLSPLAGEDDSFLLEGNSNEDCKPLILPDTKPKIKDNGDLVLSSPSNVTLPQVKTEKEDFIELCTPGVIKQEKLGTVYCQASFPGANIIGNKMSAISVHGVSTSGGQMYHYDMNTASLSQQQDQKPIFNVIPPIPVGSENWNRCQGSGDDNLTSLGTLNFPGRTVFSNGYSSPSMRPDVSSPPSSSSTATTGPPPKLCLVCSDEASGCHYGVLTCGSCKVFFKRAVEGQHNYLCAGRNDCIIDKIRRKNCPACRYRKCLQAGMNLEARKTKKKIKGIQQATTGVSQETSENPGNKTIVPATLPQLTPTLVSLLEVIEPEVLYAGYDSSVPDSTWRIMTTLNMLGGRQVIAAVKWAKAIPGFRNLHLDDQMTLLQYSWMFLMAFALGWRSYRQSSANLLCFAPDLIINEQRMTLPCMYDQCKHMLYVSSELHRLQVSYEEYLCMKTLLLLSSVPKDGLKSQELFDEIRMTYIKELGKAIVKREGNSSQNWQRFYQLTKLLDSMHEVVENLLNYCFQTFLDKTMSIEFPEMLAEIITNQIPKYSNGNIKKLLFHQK
UniProt P63079, sequence (whole entry, looked up): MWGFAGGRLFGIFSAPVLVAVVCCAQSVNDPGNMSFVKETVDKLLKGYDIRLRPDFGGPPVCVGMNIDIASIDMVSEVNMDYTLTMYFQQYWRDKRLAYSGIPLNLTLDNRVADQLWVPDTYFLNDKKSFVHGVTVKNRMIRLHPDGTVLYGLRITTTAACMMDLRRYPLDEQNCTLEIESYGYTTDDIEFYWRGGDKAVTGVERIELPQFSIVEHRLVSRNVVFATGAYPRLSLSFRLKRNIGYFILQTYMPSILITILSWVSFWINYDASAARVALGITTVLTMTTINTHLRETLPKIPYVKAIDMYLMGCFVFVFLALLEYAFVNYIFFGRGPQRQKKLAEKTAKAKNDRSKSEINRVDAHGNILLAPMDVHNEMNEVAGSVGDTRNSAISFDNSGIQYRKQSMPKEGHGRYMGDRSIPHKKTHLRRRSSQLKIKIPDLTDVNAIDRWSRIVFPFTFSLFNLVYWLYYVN

SMILES	tested on	assay	system	setting	endpoint	result
COc1cc(Nc2ncc3c(n2)-c2ccc(Cl)cc2C(c2c(F)cccc2OC)=NC3)ccc1C(=O)NCCOCCOCCNC(=O)COc1cccc2c1C(=O)N(C1CCC(=O)NC1=O)C2=O (stereo not shown)	CSNK2A2 (Homo sapiens, UniProt P19784)	binding, kinobead competition	MV4-11 cell lysate		EC50	> 30 µM
COc1cccc(-n2nc3c4cc(Cl)ccc4[nH]cc-3c2=O)c1	Gamma-aminobutyric acid receptor subunit alpha-6/beta-3, with delta subunit (Gabra6/Gabrb3, Rattus norvegicus, UniProt P30191+P63079)	GABA-evoked current, two-electrode voltage clamp		α6β3δ receptor, added: GABA EC3-10	EC50	7.7 µM
O=C(O)CCCc1cc2cc(Cl)ccc2n1S(=O)(=O)c1ccc2ncsc2c1	Ppara (Mus musculus, UniProt P23204)	receptor activation, agonist, luciferase reporter		serum-free, species mouse	EC50	2 µM
COc1c([C@H]2[C@H](C(=O)Nc3ccnc(C(N)=O)c3)O[C@@](C)(C(F)(F)F)[C@H]2C)ccc(F)c1F	NR3C1 (Homo sapiens, UniProt P04150)	agonist			EC50	≥ 30 µM
CCc1c(C)nc(-c2ccc(Cl)s2)nc1Nc1ccc(CC(=O)O)cc1	PDE4D (Homo sapiens, UniProt Q08499)	reporter gene, dual luciferase			EC50	25.9 ± 4.62 µM
CN1CCC(c2ccc(-c3ccc(C4CCCCC4)cc3)cn2)CC1		liver microsome stability	rat liver microsomes	1 µM	hepatic clearance	43 mL/min/kg
CCc1ncc(C)nc1CC	uncharacterized protein	cAMP level, agonist, cAMP luminescence	HEK293 cells		EC50	23.5 ± 20.7 µM
CCOC(=O)c1cnc2c(c(C)nn2-c2ccc(Cl)cc2)c1Cl	NPY1R	cAMP accumulation, agonist	SK-N-MC		EC50	16 µM
O=C(COCC(F)F)Nc1ccc(C2CCCCC2)cc1		liver microsome stability	human liver microsomes	1 µM, without NADPH	hepatic clearance	18 mL/min/kg
CCc1cnc(C)c(C)n1	Olfactory receptor	cAMP, agonist	HEK293 transfected with Olfactory receptor		EC50	334 ± 50.7 µM
CO[C@H]1O[C@H](COS(=O)(=O)O)[C@@H](O[C@@H]2O[C@@H](C(=O)O)[C@@H](O[C@H]3O[C@H](COS(=O)(=O)O)[C@@H](O[C@@H]4O[C@H](C(=O)O)[C@@H](O[C@H]5O[C@H](COS(=O)(=O)O)[C@@H](O)[C@H](O)[C@H]5NS(=O)(=O)O)[C@H](O)[C@H]4O)[C@H](OS(=O)(=O)O)[C@H]3NS(=O)(=O)O)[C@H](O)[C@H]2OS(=O)(=O)O)[C@H](O)[C@H]1NS(=O)(=O)O	Sclerostin (SOST, Homo sapiens, UniProt Q9BQB4)	fluorescence polarization competition		added: TAMRA-labelled probe	EC50	159 ± 26.1 µM
O=C(Nc1ccn(Cc2ccc(O)cc2C(F)(F)F)n1)c1c(F)cccc1F	HTR3A (Homo sapiens, UniProt P46098)	ion channel activity, agonist	cells overexpressing HTR3A	human receptor	EC50	> 10 µM
Cc1nccnc1C	uncharacterized protein	cAMP level, agonist, cAMP luminescence	HEK293 cells		EC50	> 1500 µM
Cc1nn(-c2nc3ccccc3[nH]2)c(O)c1C(c1ccccn1)c1c(C)nn(-c2nc3ccccc3[nH]2)c1O	Cyclic GMP-AMP synthase, catalytic domain; with DNA (CGAS, Homo sapiens, UniProt Q8N884)	cGAS phase separation, inhibitor			EC50	6.72 µM and 8.67 µM
C=CCc1ccc(OC)c(OC)c1	Olfactory receptor	cAMP, agonist	HEK293 transfected with Olfactory receptor		EC50	279 ± 36.7 µM
CSc1ccc(C(=O)/C=C/c2cc(C)c(OC(C)(C)C(=O)O)c(C)c2)cc1	Peroxisome proliferator-activated receptor delta	reporter gene, agonist, luciferase reporter	rat	serum-free	EC50	1.4 µM
CCOC(=O)c1cnc2c(c(C)nn2-c2ccc(Cl)cc2)c1NCc1ccc(OC)cc1	NPY1R	cAMP accumulation, agonist	SK-N-MC		EC50	16 µM
CC[C@H](C)[C@H](NC(=O)[C@H](Cc1ccccc1)NC(=O)[C@H](CCC(=O)O)NC(=O)[C@H](CCCNC(=N)N)NC(=O)[C@H](C)NC(=O)[C@H](C)NC(=O)[C@H](CCC(N)=O)NC(=O)[C@H](CCC(=O)O)NC(=O)[C@H](CCC(=O)O)NC(=O)[C@H](CC(C)C)NC(=O)[C@H](Cc1ccc(O)cc1)NC(=O)[C@H](CO)NC(=O)[C@H](CO)NC(=O)[C@@H](NC(=O)[C@H](CC(=O)O)NC(=O)[C@H](CO)NC(=O)[C@@H](NC(=O)[C@H](Cc1ccccc1)NC(=O)[C@@H](NC(=O)CNC(=O)[C@H](CCC(=O)O)NC(=O)[C@H](C)NC(=O)CCc1c[nH]cn1)[C@@H](C)O)[C@@H](C)O)C(C)C)C(=O)N[C@@H](C)C(=O)N[C@@H](Cc1c[nH]c2ccccc12)C(=O)N[C@@H](CC(C)C)C(=O)N[C@H](C(=O)N[C@@H](CCCNC(=N)N)C(=O)NCC(=O)N[C@@H](CCCNC(=N)N)C(=O)N[C@@H](CCCCNC(=O)COCCOCCNC(=O)COCCOCCNC(=O)CC[C@H](NC(=O)CCCCCCCCCCCCCCCCC(=O)O)C(=O)O)C(=O)O)C(C)C	GLP1R (Homo sapiens, UniProt P43220)	cAMP reporter gene, agonist, CRE luciferase	BHK	without Zr, 0% HSA	EC50	1.9e-06 µM
CCc1nccnc1C(C)=O	uncharacterized protein	cAMP level, agonist, cAMP luminescence	HEK293 cells		EC50	473 ± 41.6 µM
CCCCC[C@H](O)/C=C/[C@H]1[C@H](O)CC(=O)[C@@H]1C/C=C\CCCC(=O)O	PTGER1 (Homo sapiens, UniProt P34995, F334A/P39A)	IP1 accumulation, agonist	AD293		EC50	0.0652 µM
CCO[C@H](COc1ccc(C(F)(F)F)cc1)CSc1ccc(OCC(=O)O)c(C)c1	Peroxisome proliferator-activated receptor delta	reporter gene, agonist, luciferase reporter	rat	serum-free	EC50	0.9 µM
CCc1nccnc1OC	Olfactory receptor	cAMP, agonist	HEK293 transfected with Olfactory receptor		EC50	811 ± 27.4 µM
